# Published values collected from several papers.
# Compare with care: the assays were run in different laboratories. ± gives the spread as reported.
SMILES,target or system,assay,system,setting,quantity,value
CCCC[C@H](NC(=O)CNC(=O)CNC(=O)CN1CCN(CC(=O)O)CCN(CC(=O)O)CCN(CC(=O)O)CC1)C(=O)N[C@H]1CC(=O)NCCCC[C@@H](C(N)=O)NC(=O)[C@H](Cc2c[nH]c3ccccc23)NC(=O)[C@H](CCCNC(=N)N)NC(=O)[C@@H](Cc2ccccc2)NC(=O)[C@H](Cc2c[nH]cn2)NC1=O [lutetium-177 labelled],,,"C57 mouse, female, spleen","intravenous, 0.037 MBq, 4 h",tissue uptake,0.32 ± 0.11 %ID/g
[64Cu+2].c1cnc(CNCc2ccc(CN3CCCN4CCNCCCN(CC4)CC3)cc2)nc1,CXCR4,,"NOD/SCID mouse, U87 and U87-stb-CXCR4 xenografts, muscle","iv, 450 min, ex vivo",tissue uptake,0.29 ± 0.03 %ID/g
N=C(N)NCCC[C@@H]1NC(=O)[C@H](CCCCNC(=O)CC[C@H](NC(=O)CC[C@H](NC(=O)CN2CCN(CC(=O)O)CCN(CC(=O)O)CCN(CC(=O)O)CC2)C(=O)N[C@@H](CCC(=O)NCCCC[C@@H]2NC(=O)[C@@H](Cc3ccccc3)NC(=O)[C@H](CC(=O)O)NC(=O)CNC(=O)[C@H](CCCNC(=N)N)NC2=O)C(=O)NCCCC[C@@H]2NC(=O)[C@@H](Cc3ccccc3)NC(=O)[C@H](CC(=O)O)NC(=O)CNC(=O)[C@H](CCCNC(=N)N)NC2=O)C(=O)NCCCC[C@@H]2NC(=O)[C@@H](Cc3ccccc3)NC(=O)[C@H](CC(=O)O)NC(=O)CNC(=O)[C@H](CCCNC(=N)N)NC2=O)NC(=O)[C@@H](Cc2ccccc2)NC(=O)[C@H](CC(=O)O)NC(=O)CNC1=O [indium-111 labelled],,,"female athymic nu/nu mice, spleen","intravenous, 111 kBq, 0.5 h",tissue uptake,2.65 ± 1.36 %ID/g
[64Cu+2].c1ccc(CNCc2ccc(CN3CCCN4CCNCCCN(CC4)CC3)cc2)nc1,CXCR4,,"NOD/SCID mouse, U87 and U87-stb-CXCR4 xenografts, kidney","iv, 90 min, no blocking dose, ex vivo",tissue uptake,19.1 ± 1.67 %ID/g
C=CC(=O)Nc1cc(Nc2nccc(-c3cn(C)c4ccccc34)n2)c(OCC(F)(F)F)nc1N(C)CCN(C)C,"Cytochrome P450 2C19 (CYP2C19, Homo sapiens, UniProt P33261)","enzyme activity, inhibitor","human, liver microsomes",0.1 µM,activity vs control,94.6%
CCCC[C@H](NC(=O)CNC(=O)CNC(=O)CN1CCN(CC(=O)O)CCN(CC(=O)O)CC1)C(=O)N[C@H]1CC(=O)NCCCC[C@@H](C(N)=O)NC(=O)[C@H](Cc2c[nH]c3ccccc23)NC(=O)[C@H](CCCNC(=N)N)NC(=O)[C@@H](Cc2ccccc2)NC(=O)[C@H](Cc2c[nH]cn2)NC1=O [technetium-99m labelled],,,"C57 mouse, brain","iv, 0.037 MBq, 4 h",tissue uptake,0.01 ± 0.01 %ID/g
O=C([O-])CN1CCN(CC(=O)[O-])CCN(CC(=O)NCCc2ccc3c(c2)C2C=CCC2C(c2cc4c(cc2Br)OCO4)N3)CCN(CC(=O)[O-])CC1.[111In+3] (stereo not drawn),Hec50 tumour model,,"host not given, bone","2 h, tumour-bearing",tracer uptake,0.17 %ID/g
CCCC[C@H](NC(=O)COCCOCCNC(=O)CN1CCN(CC(=O)O)CCN(CC(=O)O)CC1)C(=O)N[C@H]1CC(=O)NCCCC[C@@H](C(N)=O)NC(=O)[C@H](Cc2c[nH]c3ccccc23)NC(=O)[C@H](CCCNC(=N)N)NC(=O)[C@@H](Cc2ccccc2)NC(=O)[C@H](Cc2c[nH]cn2)NC1=O [copper-64 labelled],,,"C57 mice, heart","intravenous, 0.37 MBq, 24 h",tissue uptake,0.17 ± 0.05 %ID/g
CC(C)C[C@H](NC(=O)[C@@H](CCCCNC(=O)CCCCCNC(=O)CN1CCN(CC(=O)O)CCN(CC(=O)O)CCN(CC(=O)O)CC1)NC(=O)[C@H](Cc1ccc(O)cc1)NC(=O)[C@H](CO)NC(=O)[C@H](Cc1c[nH]c2ccccc12)NC(=O)[C@H](Cc1cnc[nH]1)NC(=O)[C@@H]1CCC(=O)N1)C(=O)N[C@@H](CCCNC(=N)N)C(=O)N1CCC[C@H]1C(=O)NCC(N)=O [indium-111 labelled],,,"female athymic nude mouse, liver","intravenous, 0.037 MBq, 24 h",tissue uptake,0.59 ± 0.16 %ID/g
CC(C)C[C@H](NC(=O)[C@H](Cc1ccc(O)cc1)NC(=O)[C@@H](CCCNC(=N)N)NC(=O)[C@@H](CO)NC(=O)[C@H](Cc1ccccc1)NC(=O)[C@H](CC1CCCCC1)NC(=O)[C@H](CC(=O)O)NC(=O)CN1CCCN2CCN(CCCN(CC(=O)O)CC2)CC1)C(=O)N[C@@H](Cc1c[nH]c2ccccc12)C(=O)N[C@@H](CO)C(=O)O [copper-64 labelled],,,"female NMRI nude mice, liver",22 h p.i.,tissue uptake,3.6 ± 0.4 %ID/g
N=C(N)NCCC[C@@H]1NC(=O)[C@H](CCCCNC(=O)CNC(=O)CNC(=O)CNC(=O)CC[C@H](NC(=O)CNC(=O)CNC(=O)CNC(=O)CC[C@H](NC(=O)CN2CCN(CC(=O)O)CCN(CC(=O)O)CCN(CC(=O)O)CC2)C(=O)NCC(=O)NCC(=O)NCC(=O)N[C@@H](CCC(=O)NCC(=O)NCC(=O)NCC(=O)NCCCC[C@@H]2NC(=O)[C@@H](Cc3ccccc3)NC(=O)[C@H](CC(=O)O)NC(=O)CNC(=O)[C@H](CCCNC(=N)N)NC2=O)C(=O)NCC(=O)NCC(=O)NCC(=O)NCCCC[C@@H]2NC(=O)[C@@H](Cc3ccccc3)NC(=O)[C@H](CC(=O)O)NC(=O)CNC(=O)[C@H](CCCNC(=N)N)NC2=O)C(=O)NCC(=O)NCC(=O)NCC(=O)NCCCC[C@@H]2NC(=O)[C@@H](Cc3ccccc3)NC(=O)[C@H](CC(=O)O)NC(=O)CNC(=O)[C@H](CCCNC(=N)N)NC2=O)NC(=O)[C@@H](Cc2ccccc2)NC(=O)[C@H](CC(=O)O)NC(=O)CNC1=O [indium-111 labelled],,,"female athymic nu/nu mice, liver","intravenous, 0.5 h",tissue uptake,3.04 ± 1.38 %ID/g
CCCC[C@H](NC(=O)CCCCCCCNC(=O)CN1CCN(CC(=O)O)CCN(CC(=O)O)CC1)C(=O)N[C@H]1CC(=O)NCCCC[C@@H](C(N)=O)NC(=O)[C@H](Cc2c[nH]c3ccccc23)NC(=O)[C@H](CCCNC(=N)N)NC(=O)[C@@H](Cc2ccccc2)NC(=O)[C@H](Cc2c[nH]cn2)NC1=O [copper-64 labelled],,,"C57 mice, muscle","intravenous, 0.37 MBq, 24 h",tissue uptake,0.08 ± 0.02 %ID/g

# Excerpt of the above:
SMILES,target or system,assay,system,setting,quantity,value
[64Cu+2].c1cnc(CNCc2ccc(CN3CCCN4CCNCCCN(CC4)CC3)cc2)nc1,CXCR4,,"NOD/SCID mouse, U87 and U87-stb-CXCR4 xenografts, muscle","iv, 450 min, ex vivo",tissue uptake,0.29 ± 0.03 %ID/g
